{"data": "Published values from different studies", "TMPRSS2": "Transmembrane protease serine 2 (TMPRSS2, Homo sapiens, UniProt O15393)", "PFF0160c": "Dihydroorotate dehydrogenase (quinone), mitochondrial (PFF0160c, Plasmodium falciparum, UniProt Q08210)", "note": "Lines come from different studies, so protocols differ.", "chain of UniProt O15393 (whole entry, looked up)": "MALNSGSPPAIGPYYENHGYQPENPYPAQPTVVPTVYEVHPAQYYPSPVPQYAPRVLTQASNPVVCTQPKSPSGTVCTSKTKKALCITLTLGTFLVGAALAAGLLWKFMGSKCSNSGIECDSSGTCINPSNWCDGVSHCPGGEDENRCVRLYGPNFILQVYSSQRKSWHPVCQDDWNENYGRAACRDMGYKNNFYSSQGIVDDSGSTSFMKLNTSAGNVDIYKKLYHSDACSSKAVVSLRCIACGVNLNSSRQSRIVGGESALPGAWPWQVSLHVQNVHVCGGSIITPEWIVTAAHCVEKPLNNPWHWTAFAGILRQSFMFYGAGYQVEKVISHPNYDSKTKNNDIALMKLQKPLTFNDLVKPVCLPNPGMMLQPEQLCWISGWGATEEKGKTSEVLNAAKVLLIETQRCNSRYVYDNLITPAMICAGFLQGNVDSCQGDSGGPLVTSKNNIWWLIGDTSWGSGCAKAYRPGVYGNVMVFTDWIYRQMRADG", "chain of UniProt Q08210 (whole entry, looked up)": "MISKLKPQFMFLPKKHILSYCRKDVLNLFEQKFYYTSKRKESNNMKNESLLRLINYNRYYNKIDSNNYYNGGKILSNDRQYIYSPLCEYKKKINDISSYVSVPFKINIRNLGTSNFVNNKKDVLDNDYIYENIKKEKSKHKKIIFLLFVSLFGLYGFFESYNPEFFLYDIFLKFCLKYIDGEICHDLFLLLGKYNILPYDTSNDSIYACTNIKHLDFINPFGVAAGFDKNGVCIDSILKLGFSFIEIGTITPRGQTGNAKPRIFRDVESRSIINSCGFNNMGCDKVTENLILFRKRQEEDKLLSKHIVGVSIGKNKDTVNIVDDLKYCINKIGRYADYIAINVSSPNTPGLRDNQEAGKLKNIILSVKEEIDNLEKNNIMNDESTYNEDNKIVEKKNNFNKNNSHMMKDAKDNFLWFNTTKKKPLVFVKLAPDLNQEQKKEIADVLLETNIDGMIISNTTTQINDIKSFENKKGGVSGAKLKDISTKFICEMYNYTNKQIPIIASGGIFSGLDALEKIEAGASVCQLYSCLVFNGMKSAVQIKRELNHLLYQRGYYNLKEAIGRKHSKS", "chain of UniProt P52564 (whole entry, looked up)": "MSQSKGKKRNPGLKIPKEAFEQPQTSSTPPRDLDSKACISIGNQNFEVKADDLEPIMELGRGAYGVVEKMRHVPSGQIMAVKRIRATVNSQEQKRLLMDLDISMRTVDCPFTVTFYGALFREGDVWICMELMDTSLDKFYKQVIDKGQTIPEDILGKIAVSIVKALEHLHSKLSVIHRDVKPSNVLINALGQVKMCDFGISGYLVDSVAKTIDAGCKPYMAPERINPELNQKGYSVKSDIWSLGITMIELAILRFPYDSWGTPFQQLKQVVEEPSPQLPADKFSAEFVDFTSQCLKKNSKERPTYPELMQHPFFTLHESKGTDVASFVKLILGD", "chain of UniProt P37231 (whole entry, looked up)": "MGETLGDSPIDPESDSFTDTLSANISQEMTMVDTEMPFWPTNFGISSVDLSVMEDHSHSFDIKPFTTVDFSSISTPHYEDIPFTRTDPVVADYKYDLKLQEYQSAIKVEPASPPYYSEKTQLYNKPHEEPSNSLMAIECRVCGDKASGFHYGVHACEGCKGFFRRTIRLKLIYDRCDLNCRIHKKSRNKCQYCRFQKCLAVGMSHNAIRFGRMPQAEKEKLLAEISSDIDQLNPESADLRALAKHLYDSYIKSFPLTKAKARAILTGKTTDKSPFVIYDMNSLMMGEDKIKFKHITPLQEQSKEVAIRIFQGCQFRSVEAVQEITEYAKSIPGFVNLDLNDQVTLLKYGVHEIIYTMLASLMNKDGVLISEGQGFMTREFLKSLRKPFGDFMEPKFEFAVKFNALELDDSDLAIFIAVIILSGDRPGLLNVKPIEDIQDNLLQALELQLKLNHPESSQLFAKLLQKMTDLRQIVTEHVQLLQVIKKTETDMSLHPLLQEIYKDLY", "chain of UniProt P30530 (whole entry, looked up)": "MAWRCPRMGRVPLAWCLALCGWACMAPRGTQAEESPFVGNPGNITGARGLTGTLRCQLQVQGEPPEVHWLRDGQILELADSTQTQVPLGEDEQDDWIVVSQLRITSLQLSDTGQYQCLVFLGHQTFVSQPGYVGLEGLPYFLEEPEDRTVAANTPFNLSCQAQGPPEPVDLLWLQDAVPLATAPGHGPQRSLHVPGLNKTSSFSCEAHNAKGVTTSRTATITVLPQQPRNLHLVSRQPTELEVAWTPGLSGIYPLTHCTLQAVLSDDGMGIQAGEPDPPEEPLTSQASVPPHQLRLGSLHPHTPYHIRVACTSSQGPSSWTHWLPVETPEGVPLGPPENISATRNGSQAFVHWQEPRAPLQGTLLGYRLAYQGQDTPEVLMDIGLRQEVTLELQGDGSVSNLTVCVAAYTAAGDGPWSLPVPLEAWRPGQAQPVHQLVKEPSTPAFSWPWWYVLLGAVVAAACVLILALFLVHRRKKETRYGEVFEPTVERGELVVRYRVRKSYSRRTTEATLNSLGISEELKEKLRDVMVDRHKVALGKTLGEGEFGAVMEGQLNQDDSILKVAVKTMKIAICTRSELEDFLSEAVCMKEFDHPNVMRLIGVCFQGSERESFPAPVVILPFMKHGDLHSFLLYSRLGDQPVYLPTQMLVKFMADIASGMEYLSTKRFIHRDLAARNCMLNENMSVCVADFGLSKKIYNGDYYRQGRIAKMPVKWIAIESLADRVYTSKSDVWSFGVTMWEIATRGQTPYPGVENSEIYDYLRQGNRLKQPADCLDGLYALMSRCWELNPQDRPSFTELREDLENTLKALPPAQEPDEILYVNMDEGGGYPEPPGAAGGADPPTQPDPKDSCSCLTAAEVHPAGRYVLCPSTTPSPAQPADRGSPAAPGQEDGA", "chain of UniProt Q92830 (whole entry, unmodified, looked up)": "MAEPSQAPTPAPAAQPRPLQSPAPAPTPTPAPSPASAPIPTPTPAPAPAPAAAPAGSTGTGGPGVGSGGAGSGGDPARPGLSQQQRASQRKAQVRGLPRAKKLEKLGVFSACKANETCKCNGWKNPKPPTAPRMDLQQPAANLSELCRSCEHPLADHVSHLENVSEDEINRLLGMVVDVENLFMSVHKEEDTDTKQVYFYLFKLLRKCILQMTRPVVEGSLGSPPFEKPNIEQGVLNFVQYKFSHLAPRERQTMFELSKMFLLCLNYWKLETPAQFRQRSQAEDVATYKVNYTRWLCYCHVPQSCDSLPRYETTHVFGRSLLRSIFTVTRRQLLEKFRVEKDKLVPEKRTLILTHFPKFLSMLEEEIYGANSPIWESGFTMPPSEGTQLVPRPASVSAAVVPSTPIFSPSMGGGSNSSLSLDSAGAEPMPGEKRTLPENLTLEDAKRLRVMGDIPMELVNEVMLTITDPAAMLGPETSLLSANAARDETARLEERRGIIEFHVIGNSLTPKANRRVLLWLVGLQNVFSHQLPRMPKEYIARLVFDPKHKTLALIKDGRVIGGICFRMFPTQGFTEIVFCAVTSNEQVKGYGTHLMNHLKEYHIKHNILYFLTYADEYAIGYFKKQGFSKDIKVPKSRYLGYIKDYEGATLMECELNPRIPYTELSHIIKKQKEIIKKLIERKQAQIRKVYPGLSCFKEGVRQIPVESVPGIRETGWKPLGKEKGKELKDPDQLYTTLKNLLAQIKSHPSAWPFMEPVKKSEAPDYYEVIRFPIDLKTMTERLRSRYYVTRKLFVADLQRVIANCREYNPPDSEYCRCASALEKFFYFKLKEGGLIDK", "chain of UniProt Q9C098 (whole entry, looked up)": "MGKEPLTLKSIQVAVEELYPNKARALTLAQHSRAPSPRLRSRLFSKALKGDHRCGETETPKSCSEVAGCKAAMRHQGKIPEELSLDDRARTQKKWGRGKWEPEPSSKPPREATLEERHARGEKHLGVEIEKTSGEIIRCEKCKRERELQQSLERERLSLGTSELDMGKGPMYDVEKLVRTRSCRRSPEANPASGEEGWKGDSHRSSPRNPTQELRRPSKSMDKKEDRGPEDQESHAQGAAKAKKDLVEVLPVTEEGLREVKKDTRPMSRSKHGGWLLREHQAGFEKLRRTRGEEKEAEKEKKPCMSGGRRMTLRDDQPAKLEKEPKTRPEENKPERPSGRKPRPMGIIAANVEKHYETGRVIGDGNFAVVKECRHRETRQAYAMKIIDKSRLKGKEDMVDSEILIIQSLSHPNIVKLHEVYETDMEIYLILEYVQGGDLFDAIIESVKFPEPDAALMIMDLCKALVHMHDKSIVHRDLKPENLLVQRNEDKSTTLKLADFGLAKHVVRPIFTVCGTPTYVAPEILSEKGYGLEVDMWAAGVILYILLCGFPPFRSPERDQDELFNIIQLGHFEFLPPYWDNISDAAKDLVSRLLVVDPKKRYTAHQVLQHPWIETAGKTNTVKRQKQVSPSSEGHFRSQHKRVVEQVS"}
{"SMILES": "C[C@@H](NC(=O)[C@H](CCC(N)=O)NC(=O)[C@@H](N)CCCNC(=N)N)C(=O)N[C@H](CCCNC(=N)N)C(=O)c1nc2ccccc2s1", "target or system": "TMPRSS2", "assay": "enzyme activity, inhibitor", "conditions": "1 nM", "quantity": "activity vs control", "value": "100%"}
{"SMILES": "[2H]c1c([2H])c([C@]2([2H])CCCN2C(=O)C(C)(C)Oc2ccc3cn[nH]c3c2)c([2H])c([2H])c1C([2H])([2H])[2H]", "target or system": "MAP2K6 (Homo sapiens, UniProt P52564)", "assay": "binding, competition with immobilised ligand", "conditions": "1 µM", "quantity": "remaining binding", "value": "94%"}
{"SMILES": "CC(C)CC(=O)OC[C@H]1O[C@@](C#N)(c2ccc3c(N)ncnn23)[C@H](O)[C@@H]1O", "target or system": "PPARG (Homo sapiens, UniProt P37231)", "assay": "cell-free assay", "conditions": "20 µM", "quantity": "inhibition", "value": "9%"}
{"SMILES": "COc1ncccc1-c1cnn2ccc(N3CCN(C(=O)OC(C)C)CC3)nc12", "target or system": "DCLK3 (Homo sapiens, UniProt Q9C098)", "assay": "binding, competition with immobilised ligand", "conditions": "1 µM", "quantity": "remaining binding", "value": "100%"}
{"SMILES": "Cc1cc(Nc2ccc(C)c(C)c2)n2nc(C)nc2n1", "target or system": "PFF0160c", "assay": "enzyme activity, inhibitor, absorbance", "quantity": "IC50", "value": "> 10 µM"}
{"SMILES": "COC(=O)c1cc(-c2cccc(NC(=S)Nc3ccc(Cl)cc3)c2)on1", "target or system": "Klebsiella pneumoniae", "assay": "microbial growth, broth dilution", "system": "BAA1705", "quantity": "MIC", "value": "> 64 mg/L"}
{"SMILES": "[2H][C@@](CCCNC(=N)N)(NC(=O)[C@H](Cc1ccccc1)NC(=O)[C@H](CCC(N)=O)NC(C)=O)C(=O)c1nc2ccccc2s1", "target or system": "TMPRSS2", "assay": "enzyme activity, inhibitor", "conditions": "1 nM", "quantity": "activity vs control", "value": "23%"}
{"SMILES": "Cc1nn(C)cc1-c1nc2c(N3CCN(Cc4ccc(Cl)cc4)CC3)c(Cl)cnc2[nH]1", "target or system": "TNIK (Homo sapiens, UniProt Q9UKE5)", "assay": "binding, competition with immobilised ligand", "conditions": "1 µM", "quantity": "remaining binding", "value": "93%"}
{"SMILES": "Nc1ncc(-c2nc(N3CCOCC3)nc(N3CCOCC3)n2)c(C(F)F)n1", "target or system": "TAOK2 (Homo sapiens, UniProt Q9UL54)", "assay": "binding, competition with immobilised ligand", "conditions": "10 µM", "quantity": "remaining binding", "value": "92%"}
{"SMILES": "CCN(CC)CCCC[C@H](NC(=O)[C@H](CC(C)C)NC(=O)[C@H](C)NC(=O)[C@H](Cc1ccccc1)NC(=O)c1ccc(C(C)(C)C)cc1)C(=O)N[C@@H](CO)C(=O)OC", "target or system": "KAT2A (Homo sapiens, UniProt Q92830)", "assay": "thermal stability, DSF", "conditions": "25 µM", "quantity": "ΔTm", "value": "0 °C"}
{"SMILES": "C#Cc1n[nH]c2c(-c3cn(C(C)c4ccccn4)c(=O)[nH]c3=O)cc(F)cc12 (stereo not shown)", "target or system": "AXL (Homo sapiens, UniProt P30530)", "assay": "enzyme activity, inhibitor", "conditions": "1 µM", "quantity": "inhibition", "value": "46%"}
{"SMILES": "CCc1nonc1NC(=O)c1oc2c(C)c(C)ccc2c1C", "target or system": "PFF0160c", "assay": "enzyme activity, inhibitor, absorbance", "quantity": "IC50", "value": "0.214 µM"}
{"SMILES": "N=C(N)NCCC[C@@H](NC(=O)[C@H](Cc1ccccc1)NC(=O)[C@H](CCC(N)=O)NC(=O)CCO)C(=O)c1nc2ccccc2s1", "target or system": "TMPRSS2", "assay": "enzyme activity, inhibitor", "conditions": "1 nM", "quantity": "activity vs control", "value": "30%"}
{"note": "Repeated from above:"}
{"SMILES": "Nc1ncc(-c2nc(N3CCOCC3)nc(N3CCOCC3)n2)c(C(F)F)n1", "target or system": "TAOK2 (Homo sapiens, UniProt Q9UL54)", "assay": "binding, competition with immobilised ligand", "conditions": "10 µM", "quantity": "remaining binding", "value": "92%"}
{"SMILES": "CCN(CC)CCCC[C@H](NC(=O)[C@H](CC(C)C)NC(=O)[C@H](C)NC(=O)[C@H](Cc1ccccc1)NC(=O)c1ccc(C(C)(C)C)cc1)C(=O)N[C@@H](CO)C(=O)OC", "target or system": "KAT2A (Homo sapiens, UniProt Q92830)", "assay": "thermal stability, DSF", "conditions": "25 µM", "quantity": "ΔTm", "value": "0 °C"}
